Experimental data collected from several papers.
Each numbered part is a random draw from the data of one study; scales do not carry over between parts.

Set 1 — method: universal PBM; molecule type: double-stranded DNA, one strand shown; sample: in vitro; concentration: 600 nM; direction: higher = stronger binding
Target: Sal-like protein 4, full length isoform A (SALL4, Homo sapiens, UniProt Q9UJQ4, residues 1-1053)
UniProt Q9UJQ4, sequence (whole entry, looked up): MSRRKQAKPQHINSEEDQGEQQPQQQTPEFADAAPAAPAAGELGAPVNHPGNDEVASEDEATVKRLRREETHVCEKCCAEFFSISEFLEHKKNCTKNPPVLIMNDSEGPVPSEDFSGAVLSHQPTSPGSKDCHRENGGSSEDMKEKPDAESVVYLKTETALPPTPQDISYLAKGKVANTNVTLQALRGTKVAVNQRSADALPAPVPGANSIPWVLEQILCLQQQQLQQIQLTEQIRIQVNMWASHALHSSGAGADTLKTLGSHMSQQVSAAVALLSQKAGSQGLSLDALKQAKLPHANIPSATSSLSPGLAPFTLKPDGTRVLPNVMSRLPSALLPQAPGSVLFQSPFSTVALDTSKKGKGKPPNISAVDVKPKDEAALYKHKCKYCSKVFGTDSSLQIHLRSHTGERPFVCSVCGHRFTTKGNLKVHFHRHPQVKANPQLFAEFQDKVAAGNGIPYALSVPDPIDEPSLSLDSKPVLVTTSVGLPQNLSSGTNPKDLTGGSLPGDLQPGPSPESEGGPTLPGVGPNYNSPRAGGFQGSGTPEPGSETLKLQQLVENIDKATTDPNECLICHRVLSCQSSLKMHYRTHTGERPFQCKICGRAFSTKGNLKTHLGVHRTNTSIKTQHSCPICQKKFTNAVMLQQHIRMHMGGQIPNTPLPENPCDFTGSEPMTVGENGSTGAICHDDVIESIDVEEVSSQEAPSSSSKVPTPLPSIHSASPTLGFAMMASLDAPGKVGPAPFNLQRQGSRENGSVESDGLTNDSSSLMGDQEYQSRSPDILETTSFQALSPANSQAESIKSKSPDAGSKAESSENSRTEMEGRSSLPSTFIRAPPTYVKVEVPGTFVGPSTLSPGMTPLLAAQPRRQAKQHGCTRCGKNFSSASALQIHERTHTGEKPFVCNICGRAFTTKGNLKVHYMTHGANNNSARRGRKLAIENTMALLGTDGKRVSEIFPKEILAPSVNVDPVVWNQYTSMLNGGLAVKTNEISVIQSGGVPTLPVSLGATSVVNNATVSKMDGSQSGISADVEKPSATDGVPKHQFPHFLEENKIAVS
Notes: 8-mer, flanks averaged, mean of replicates
| Oligonucleotide | E-score |
| --- | --- |
| AAGGTCGA | 0.0962 |
| AAATATTG | 0.428 |
| AAGCTTCG | -0.208 |
| CTTAGGGA | -0.18 |
| CTCCATGA | 0.0769 |

Set 2 — method: aptamer microarray, sandwich; molecule type: DNA with 2'F-ANA; sample: in vitro; concentration: 200 nM; with: Cy3 exosite-II aptamer, 400 nM; direction: higher = stronger binding; oligonucleotide: GGTTGGTGTGGTTGG
Target: Prothrombin, mature alpha-thrombin (F2, Homo sapiens, UniProt P00734)
Notes: whole 15-mer aptamer, many near background
| Modification | mean fluorescence intensity [a.u.] |
| --- | --- |
| 2'F-ANA at 1 2 3 4 10 12 13 14 | 51.3 |
| 2'F-ANA at 1 2 3 4 5 7 9 11 13 14 | 46.1 |
| 2'F-ANA at 1 3 5 7 10 11 13 15 | 46.3 |
| 2'F-ANA at 1 2 3 4 5 8 10 11 12 13 | 45.3 |
| 2'F-ANA at 1 2 3 4 5 9 10 11 12 14 | 63.8 |
| 2'F-ANA at 4 11 14 15 | 92.8 |
| 2'F-ANA at 2 5 6 7 9 12 13 14 | 67.3 |

Set 3 — method: protein binding microarray; molecule type: double-stranded DNA, one strand shown; sample: in vitro; concentration: not given; baseline: not given; direction: higher = stronger binding
Target: Histone acetyltransferase KAT6A, both winged helices, GST fusion (KAT6A, Homo sapiens, UniProt Q92794, residues 1-181)
Notes: 8-mer, flanks averaged, mean of 2 arrays, mostly near background
Residues (chain): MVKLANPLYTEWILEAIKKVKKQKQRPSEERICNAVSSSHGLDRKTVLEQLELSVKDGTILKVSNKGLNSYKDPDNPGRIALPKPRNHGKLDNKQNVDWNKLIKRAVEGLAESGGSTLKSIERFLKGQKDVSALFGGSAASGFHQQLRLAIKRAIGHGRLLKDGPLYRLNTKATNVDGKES
| Oligonucleotide | E-score |
| --- | --- |
| ACACGCGG | 0.247 |
| AGCGCTCA | 0.31 |
| AACTAACG | 0.158 |
| AAGGAGCT | -0.108 |
| CAGGCCGC | 0.127 |

Mixed results
| Substance | target | assay | test system | setting | how to read | endpoint | value |
| --- | --- | --- | --- | --- | --- | --- | --- |
| PhoQ, residues 284 288 289 292 302 303 AGCYAI | PhoP, residues 12 14 15 18 19 QYFSL (Escherichia coli, UniProt P23836) | Sort-seq, refers to: YFP reporter | E. coli | PhoQ-PhoP variant library, with: 10 µM Mg2+ | baseline: high Mg2+ state, higher = stronger signaling | fold induction | 6.01 |
